Measurements of several laboratories.
± marks the error that the study gave.
Target: Mu-type opioid receptor (OPRM1, Homo sapiens, UniProt P35372)

Chains of the proteins cited; added tags and fusions are not shown.
UniProt P35372, whole entry: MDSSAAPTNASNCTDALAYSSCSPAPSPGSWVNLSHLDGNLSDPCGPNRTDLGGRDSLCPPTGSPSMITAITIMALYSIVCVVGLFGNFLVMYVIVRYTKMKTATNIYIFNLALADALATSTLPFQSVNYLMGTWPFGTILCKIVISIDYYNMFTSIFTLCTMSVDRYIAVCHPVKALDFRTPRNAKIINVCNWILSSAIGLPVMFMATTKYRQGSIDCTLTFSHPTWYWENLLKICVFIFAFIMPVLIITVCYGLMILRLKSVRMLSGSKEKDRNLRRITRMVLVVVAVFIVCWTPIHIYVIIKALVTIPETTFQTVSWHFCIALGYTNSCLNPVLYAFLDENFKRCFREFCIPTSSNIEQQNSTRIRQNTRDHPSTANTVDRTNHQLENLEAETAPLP

| Structure (SMILES) | test | system | setting | quantity | result |
| --- | --- | --- | --- | --- | --- |
| C=C[C@H]1[C@H]2CCC[C@]1(c1cccc(O)c1)CCN2CC1CC1 | forskolin-induced cAMP, antagonist |  | together with: fentanyl at EC90 | IC50 | 973 ± 506 nM |
| CCCCCc1cc(O)c([C@@H]2C[C@@H](CO)CC[C@H]2C(C)C)c(O)c1 | cAMP level, antagonist | HEK293 expressing human µ-opioid receptor | together with: fentanyl 500 pM (EC95) | IC50 | 137 nM |
| CCC1C(=O)N(C2CCN(C3CCc4ccccc4C3)CC2)c2ccccc21 (stereo not shown) | radioligand displacement |  | together with: [3H]DAMGO | Ki | 10.2 ± 1.76 nM |
| Oc1cccc(N2CCN(CCCc3ccccc3)CC2)c1 | cAMP, antagonist |  | human receptor, together with: fentanyl EC90 | IC50 | 190 ± 20.9 nM |
| C=C(I)[C@H]1CC[C@]2(C)C[C@H]1c1c(O)cc(CCCCC)cc1O2 | cAMP level, antagonist | HEK293 expressing human µ-opioid receptor | together with: fentanyl 500 pM (EC95) | IC50 | 499 nM |
| C=C[C@H]1[C@H]2CCC[C@]1(c1cccc(O)c1)CCN2C | forskolin-induced cAMP, antagonist |  | together with: fentanyl at EC90 | IC50 | > 10000 nM |
| C=C(C)[C@@H]1CCC(C)=C[C@H]1c1c(OC)cc(CCCCC)cc1OC | cAMP level, antagonist | HEK293 expressing human µ-opioid receptor | together with: fentanyl 500 pM (EC95) | IC50 | 90 nM |
| CN(C)[C@]1(c2ccccc2)CC[C@]2(CC1)OCCc1c3cc(F)ccc3[nH]c12 | cAMP, agonist |  | human receptor | EC50 | 0.32 ± 0.07 nM |
| CN(C)[C@]1(c2ccccc2)CC[C@]2(CC1)OCCc1c3cc(F)ccc3[nH]c12 | binding | CHO cell membranes |  | Kd | 3.77 nM |
| N=C(N)NCCNC(=O)C1(Nc2ccccc2)CCN(Cc2ccccc2)CC1 | binding | HEK293 membranes | together with: [3H]DAMGO | Ki | > 5000 nM |
| CCC1C(=O)N(C2CCN(C3CCCc4ccccc43)CC2)c2ccccc21 (stereo not shown) | agonist | cell membranes |  | EC50 | 28.7 ± 5.5 nM |
| C=C(CO)[C@@H]1CCC(C)=C[C@H]1c1c(OC(C)=O)cc(CCCCC)cc1OC(C)=O | cAMP level, antagonist | HEK293 expressing human µ-opioid receptor | together with: fentanyl 500 pM (EC95) | IC50 | 1170 nM |
| Oc1cccc(N2[C@@H]3CC[C@H]2CN(CCCc2ccccc2)C3)c1 | cAMP, antagonist |  | human receptor, together with: fentanyl EC90 | IC50 | > 10000 nM |
| O=C1Cc2ccccc2N1C1CCN([C@@H]2CC[C@@H]3CCCc4cccc2c43)CC1 | agonist | cell membranes |  | EC50 | 745 ± 257 nM |
| Oc1cccc(N2[C@@H]3CC[C@H]2CNC3)c1 | cAMP, antagonist |  | human receptor, together with: fentanyl EC90 | IC50 | > 10000 nM |
| C=CCc1cc(O)c([C@@H]2C=C(C)CC[C@H]2C(=C)C)c(O)c1 | cAMP level, antagonist | HEK293 expressing human µ-opioid receptor | together with: fentanyl 500 pM (EC95) | IC50 | 1400 nM |
| CCC1C(=O)N(C2CCN(CCCc3ccccc3)CC2)c2ccccc21 (stereo not shown) | agonist | cell membranes |  | EC50 | 673 ± 334 nM |
| C=C[C@H]1[C@H]2CCC[C@]1(c1cccc(O)c1)CCN2CCc1cccs1 | forskolin-induced cAMP, antagonist |  | together with: fentanyl at EC90 | IC50 | > 10000 nM |
| C=C(C)[C@H]1CC[C@]2(C)C[C@H]1c1c(O)cc(CCCCC)cc1O2 | cAMP level, antagonist | HEK293 expressing human µ-opioid receptor | together with: fentanyl 500 pM (EC95) | IC50 | 349 nM |
| CCC1C(=O)N(C2CCN(C/C=C/c3ccccc3)CC2)c2ccccc21 (stereo not shown) | radioligand displacement |  | together with: [3H]DAMGO | Ki | 33.4 ± 6.4 nM |
| COc1cc2c(NC3CCN(C(C)C)CC3)nc(N3CCC(F)(F)CC3)nc2cc1OCCCN1CCCC1 | binding, radioligand binding |  |  | Ki | > 10000 nM |
| CCC1C(=O)N(C2CCN(C(C)CC(c3ccccc3)c3ccccc3)CC2)c2ccccc21 (stereo not shown) | agonist | cell membranes |  | EC50 | > 10000 nM |
| C=C(C)[C@@H]1CCC(C)=C[C@H]1c1c(O)cc(CCCC)cc1O | cAMP level, antagonist | HEK293 expressing human µ-opioid receptor | together with: fentanyl 500 pM (EC95) | IC50 | 173 nM |
| CCC1C(=O)N(C2CCN(CCCCc3ccc(-c4ccccc4)cc3)CC2)c2ccccc21 (stereo not shown) | agonist | cell membranes |  | EC50 | > 10000 nM |
| N=C(N)NCCC[C@H](N)C(=O)NCC1(Nc2ccccc2)CCN(Cc2ccccc2)CC1 | binding | HEK293 membranes | together with: [3H]DAMGO | Ki | > 5000 nM |

Excerpt of the above:
| Structure (SMILES) | test | system | setting | quantity | result |
| --- | --- | --- | --- | --- | --- |
| CCC1C(=O)N(C2CCN(C/C=C/c3ccccc3)CC2)c2ccccc21 (stereo not shown) | radioligand displacement |  | together with: [3H]DAMGO | Ki | 33.4 ± 6.4 nM |
| COc1cc2c(NC3CCN(C(C)C)CC3)nc(N3CCC(F)(F)CC3)nc2cc1OCCCN1CCCC1 | binding, radioligand binding |  |  | Ki | > 10000 nM |
